Measurements from different studies.
Numbered parts are unrelated; each lists some results of a single study.

Sample 1
Target: Interferon regulatory factor 5, full length, phosphomimetic (IRF5, Homo sapiens, UniProt Q13568-2, residues 1-514, K96S/S451D/S453D/S456D/S462D)
Technique: protein-binding microarray
Molecule type: double-stranded DNA, one strand shown
Medium: in vitro
Tested at: 250 nM
Notes: 60-bp whole probe
With: salmon DNA 0.4 mg/ml
Relative to: random background probes
Reading: higher = stronger binding
Constant ends, left off below: GCCTAGCACT … GTCTTGATTCGCTTGACGCTGCTG
Oligonucleotide | log fluorescence [z-score]
TAGATTTCGGGTTCCGATTAGTGCTA | 4.59
TAGGTATCGGTATCGGTTTGTGCTAG | 9.5
TAGGTTTCGGACTGGGTTGGTGCTAG | 5.18
TAGGTTTCGGACTTGGTTAGTGCTAG | 4.8
TAGGTATCGACACTGGGTTTGTGCTA | 2.25
CAATTTTCCCCTACTGACTGTGCTAG | 0.882

Sample 2
Target: TAR DNA-binding protein 43, full length, His tag (TARDBP, Homo sapiens, UniProt Q13148, residues 1-414)
Technique: RNA Bind-n-Seq
Molecule type: RNA
Medium: in vitro
Tested at: 20 nM
Notes: 6-mer, flanks averaged, single round
With: 150 mM LiCl
Relative to: input library
Reading: higher = stronger binding
Oligonucleotide | 6-mer enrichment (R)
CAAUCG | 0.803
CGGGCA | 0.964
CUUGAU | 0.964
AGCCUG | 0.903
AACACG | 0.823
CACUGC | 0.881

Sample 3
Target: Probable WRKY transcription factor 11, DNA-binding domain (WRKY11, Arabidopsis thaliana, UniProt Q9SV15, residues 228-325)
Technique: DNA-protein interaction ELISA
Molecule type: double-stranded DNA, one strand shown
Medium: in vitro, bacterial lysate
Tested at: not given
Notes: whole dsDNA probe, crude lysate protein
Relative to: highest signal in screen
Reading: higher = stronger binding
Target sequence (chain): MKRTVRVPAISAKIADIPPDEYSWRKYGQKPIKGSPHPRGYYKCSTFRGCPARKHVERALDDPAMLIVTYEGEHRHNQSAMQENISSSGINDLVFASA
Oligonucleotide | relative absorbance
AAAAAAAAATGCTAGCGCGTACGTAAAAAA | 16.4 % of maximum
AAAAAACAACTTGGAGGATTTACAGCAAAA | 18.2 % of maximum
AAAAAAATCATCCTATTGTTGCTGTCAAAA | 16.7 % of maximum
AAAAAACCCCAGATTTCCAGCAGTTCAAAA | 14.4 % of maximum
AAAAAAGGGCCCACTATCGACGTCAAAA | 14.7 % of maximum
AAAAAATCAAAACAACGATGCCGTTAAAAA | 19.3 % of maximum

Single results of other studies
Substance | target | test | system | setting | scale | endpoint | result
PhoQ, residues 284 288 289 292 302 303 SVTLVV | PhoP, residues 12 14 15 18 19 NQGLL (Escherichia coli, UniProt P23836) | Sort-seq, refers to: YFP reporter | E. coli | PhoQ-PhoP variant library, with: 10 µM Mg2+ | relative to: high Mg2+ state, higher = stronger signaling | fold induction | 2.11

Repeated from above (sample 2):
Oligonucleotide | 6-mer enrichment (R)
CGGGCA | 0.964
AACACG | 0.823
CAAUCG | 0.803
